Measured values pooled from the literature.
Each numbered part is a random draw from the data of one study; scales do not carry over between parts.

Series 1
Target: RING finger protein unkempt homolog, zinc fingers 1-6, GST-SBP tag (UNK, Homo sapiens, UniProt Q9C0B0, residues 30-357)
Chain of UniProt Q9C0B0 (30-357, looked up): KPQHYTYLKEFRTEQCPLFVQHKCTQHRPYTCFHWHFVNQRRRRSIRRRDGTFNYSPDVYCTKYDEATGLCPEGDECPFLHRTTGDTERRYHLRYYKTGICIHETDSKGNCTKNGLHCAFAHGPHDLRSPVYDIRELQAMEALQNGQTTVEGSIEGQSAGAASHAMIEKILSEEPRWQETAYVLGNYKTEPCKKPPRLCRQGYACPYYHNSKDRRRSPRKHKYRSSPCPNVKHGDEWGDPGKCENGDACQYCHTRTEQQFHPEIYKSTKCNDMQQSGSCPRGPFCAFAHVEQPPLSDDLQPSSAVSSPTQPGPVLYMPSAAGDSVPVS
Method: RNA Bind-n-Seq
Form: RNA
Matrix: in vitro
Concentration: not given
Notes: RNA with constant flanks, ends assumed
Baseline: input RNA pool
Direction: higher = stronger binding
All sequences stand within: GGGAGUUCUACAGUCCGACGAUC … CAACAGAGGAUUGAGCAUCA
Oligonucleotide	bound/input enrichment [ratio]
UUUCCUCACAAAUGUGAGGUCUGUGAUAAAGGUUUUCAUCGUCCUUCUGAGCUCAAAAAGCACCGUGAUAUCCAUAAGGGUAGGAAGAUUCAUCAGUGCAGGCACUGUGACUUUAAAACA	0.132
GCAGUAAUGACUACCUAGGCAUGAGUCGACACCCACGGGUGUGUGGGGCUGUCAUGUGAGCCGCUCUCAGUUUUCACCUACCACAGGCGUUAUUUGGCAGGACUUGGGUGGCUUGUACAG	0.182
CAUUUAAAGUGGCAAAGCUCUAAAGCGUUCUGAGUACUAAAUACAUUUUUAACUUGACUGCCGCUGCCUAUAAACUUUCAGGUAAAGGAAAAAGGGAAGUGCGGGUAGUGGAGAUUUUGC	0.213
AUUUUCACAAGAAUGUUUGCAGAUCCUCAUGGCAAGGUGUUCAGCAUGUUCUUGGAGACUCCCGCCGAUUUCAUACAAGUCCACAAAGAUGAUCUUCAAGAUUGGUUGUUUGUUCUGCUG	0.126
CAGGUAGGUGUUUCUCUGUUAUGUAAGCAAUAACUUUUUCUGUGUCUUAUGGAGUAUGACCCGCAAUUAUUUAUUUCCAUGCUAGACGGUUCUUUGCAUGUGGGUUCCUUAUAGGUGCAG	0.59
CGUCUUCUGUCUGCCUUCCCUGUCUCCCUAACUCCCCCUUCCUUCCCAUUGUCUUUUUGGCCGGUUGGAUUCUGGGGACUAAACUGCAGUUCCUCAUAAAAAUCCCCAUUCCUACCCUUU	0.322
CUGUGGUGACUCAGAUAAAGGAUUUGUCGUUAUUAAUCAAAAGGGGAUUGACCCCUUUUCCUCCGAUGCCCUUGCGAAAGAAGGGAUCGUAGCUCUGCGCAGAGCCAAGAGGAGAAACAU	0.174
GUGAACACAAUGGACCUUGAGAGAGAUGAACCUCUCAAAAGCACCGGCCCUCAGAUUUCUGUCCGUGAAUUUUCUUGCCACUGCUGCUACGACAUCCUGGUUAACCCCACCACCUUGAAC	0.289
CUUGUGGAGAAGGUGCUUCCUGGGCACUUCAAUACCUUUGGUGCCGAAAGGCUGUUUCGCUCCGCUUCUAACUAUAUUUCAAAAGCUGGGAUAUGCCACAAAGUGUCUACUUUUGCCAUG	0.105
UCAAGGAAAACAUCAACUGAAUGUGCAUCUAGUACAGAAAAUUCUUUCGUUGUCAGCAGCCGUUCAGUUUCUAAUACCACUGUUGCUGGAACUCCCCCAUACCCUACAAGUCGGAGGCAA	0.19
GCCAUUUUCCCAGAUGGGACGCACAACGACACAUGGCAGUGCCAAGGCUACUUCACUGCACCCGAACAAUUUAUCAAGGAAGUGAUCAAGAGUCAUUCUCCCGAAGACAUGACAAAAACA	0.209

Series 2
Target: RNA binding protein fox-1 homolog 2, RRM domain, GST-SBP tag (RBFOX2, Homo sapiens, UniProt O43251-10, residues 100-194)
Method: RNA Bind-n-Seq
Form: RNA
Matrix: in vitro
Concentration: 365 nM
Notes: natural RNA segment, single round, ends assumed
Baseline: no-protein control
Direction: higher = stronger binding
All sequences stand within: GGGAGUUCUACAGUCCGACGAUC … UGGAAUUCUCGGGUGCCAA
Target sequence (chain): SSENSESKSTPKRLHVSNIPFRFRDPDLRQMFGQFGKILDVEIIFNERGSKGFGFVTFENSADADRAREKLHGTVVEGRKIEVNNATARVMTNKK
Oligonucleotide	RBNS enrichment (R)
GCUCACCCUUCUUAACAUUCUGUAAUGGUUACAGAUGAGAAUGGAAAACACAUAUUUUAUGGAUGAGGCGUUUUGGUCUCCCCUGCAGUCGAUUUCUAGAAUCAAGUUUU	0.303
UGCCUGCCAUGGCCACAGGCUCUCUCUGUGCAUUCUCUCUGGAGUUAGCCUGCUUCUCACAGGACACUUGUGACAGCAGAGCUGGGGGUGGUUUUCCAGCCUCGACCCAC	0.482
AGAAGAUGCUUGUUUUUAUUAAACAUUUGGAGAUUUAGAUAAUUUACAUUUUAACUGAAUGUCUAAAGUGAUUAUCUUCCCCUCCCUCCCCCAAGUUAAUCUUCCAUCUU	0.584
CCUUUGAGCAGUGCUCUCAAGAGCUCCGUGCCUGUCCACAAUGACCUAGAGUGCAUCCUGCUCAUUGUCAGUGUAGCCCCUCGCCCCUAUAUUCAUCCAGGAUACUUGGA	0.172
AGGAAAUUCUAGUACAAAGGGAAAAUAGCCAUAAUGUGGUAAUGUAAAAAAUGCUAUCUCCCUAUUAUUUCUGUUUUAUAUCAUUGUCAAUAAAAGGAAUAUCAUGGUCA	1.27
CUCUCUCUGUCUCUCUCUGUCUCUCUCCCACUCCUUCUUUCCCCGAGGCCUUUGCCUGGGUCUGAAGGUCUUGGCCAGAGGAACACCAUCAUCAGUCAAGGGGUCUGGCC	0.346
CAAAAACAGAGAGCAAGCCCGAGGAGGAGACUGGUGACUUUCCUGUGUCCUCAGCUAACAAAGGCAGGACUCCAGCUGGACUUCUGCAGCUUCCUUCCGAGUCUCCCUAG	0.172
CAGGCCUGAUGAAUUUUUAAGACUGCUUUGUUGGUCAUUUGGCUGAUGGCUUCUUAUGUGCAUUCAACAGUUAAAAAUUCCUAAUCGAUUCUGUCAUCAUGCCCCCUCCC	0.403
GAGUUCCUUCACGCACUUGGUUCACCACCAUCACUCUUGAGUUUUGGACAAAAGAGGUGGGUAUGCCAGGCACAGUGGCUCACGCCUGUGAUCCCAGCACUUUGGGAGGC	0.218
CACCUGAGGCAGUGUGGGAGUUGAACGACCCUGCUGUCCUUUUUAACCUGUGUUGUCCUAGACCCUGUCGGGGCAGUCAGGGGACACUAGAGAUUUGAUCUCAUGCGAGU	0.241
AGAGGUAGCCUCUGCAAAUGGCAUACCAGAUGGGACUCUAAGAUGCUUGUGUGGUGGCUUCUUGUCCUUCUCUUUGACUUCUGUGGCAUGGUGCUAGUGCAUGUACCCUG	11.4
GGAGUGGAGAGGAAAAGCAUCAGAAAGAGGCAGACCAUCCACCAGGCCUUUGAGAAAGGGUAGAAUUCUGGCUGGUAGAGCAGGUGAGAUGGGACAUUCCAAAGAACAGC	0.605

Series 3
Target: Sal-like protein 4, full length isoform A (SALL4, Homo sapiens, UniProt Q9UJQ4, residues 1-1053)
Chain of UniProt Q9UJQ4 (whole entry, looked up): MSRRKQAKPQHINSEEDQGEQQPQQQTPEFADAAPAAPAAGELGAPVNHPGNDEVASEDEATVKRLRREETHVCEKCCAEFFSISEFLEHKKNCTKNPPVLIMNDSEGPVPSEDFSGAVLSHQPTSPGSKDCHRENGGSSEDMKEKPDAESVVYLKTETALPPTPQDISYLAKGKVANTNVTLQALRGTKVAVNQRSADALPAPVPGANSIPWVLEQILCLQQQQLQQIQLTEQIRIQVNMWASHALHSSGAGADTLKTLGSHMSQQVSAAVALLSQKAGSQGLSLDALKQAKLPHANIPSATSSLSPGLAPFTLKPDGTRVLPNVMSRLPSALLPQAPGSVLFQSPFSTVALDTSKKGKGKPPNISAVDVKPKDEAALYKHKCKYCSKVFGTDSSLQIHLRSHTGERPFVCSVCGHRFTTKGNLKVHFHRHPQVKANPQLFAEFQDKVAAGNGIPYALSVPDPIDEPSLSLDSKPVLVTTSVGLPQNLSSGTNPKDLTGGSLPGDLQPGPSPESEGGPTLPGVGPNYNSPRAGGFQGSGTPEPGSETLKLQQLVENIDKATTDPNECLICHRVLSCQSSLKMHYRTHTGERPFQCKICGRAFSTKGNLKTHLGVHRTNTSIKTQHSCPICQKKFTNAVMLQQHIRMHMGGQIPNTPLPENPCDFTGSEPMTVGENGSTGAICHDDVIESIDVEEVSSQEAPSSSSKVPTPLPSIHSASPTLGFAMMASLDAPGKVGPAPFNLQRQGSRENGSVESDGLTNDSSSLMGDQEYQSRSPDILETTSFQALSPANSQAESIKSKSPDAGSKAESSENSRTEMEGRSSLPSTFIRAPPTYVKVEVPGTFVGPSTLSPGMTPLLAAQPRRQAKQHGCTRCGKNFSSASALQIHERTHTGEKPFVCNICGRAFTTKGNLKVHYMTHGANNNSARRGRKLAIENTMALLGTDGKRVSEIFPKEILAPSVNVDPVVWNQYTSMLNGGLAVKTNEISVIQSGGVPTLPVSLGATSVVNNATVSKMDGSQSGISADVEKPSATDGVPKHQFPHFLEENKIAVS
Method: universal PBM
Form: double-stranded DNA, one strand shown
Matrix: in vitro
Concentration: 600 nM
Notes: 8-mer, flanks averaged, mean of replicates
Direction: higher = stronger binding
Oligonucleotide	E-score
CCCTTATA	0.202
TATGCGCA	0.0413
CCAGTGTC	-0.185
CCGCACGA	-0.112
AAAAAGAG	0.0899
CGTTATGA	0.237
AGCCGTCG	-0.328
CACTACGC	-0.225
GGGCCAAC	-0.214
CATAGCCC	-0.258
GGGCGCTA	-0.318
GGCACGTA	-0.0828
AGCCCGCG	-0.349
AAATTGGG	0.166
ACCACGTA	-0.114
CCTTTCAA	0.105
GGCCAGGA	-0.25
CTCGTCAA	-0.0832
CATCTGCA	-0.00839
TGTGTCAA	0.234

Series 4
Target: Fragile X messenger ribonucleoprotein 1, C-terminal low-complexity region (Fmr1, Mus musculus, UniProt P35922)
Method: RNA Bind-n-Seq
Form: RNA
Matrix: in vitro
Concentration: 200 nM
Notes: whole 134-nt RNA, ends assumed
With: 150 mM KCl
Baseline: input library
Direction: higher = stronger binding
All sequences stand within: GGGAGUUCUACAGUCCGACGAUC … UGGAAUUCUCGGGUGUCAAGG
Oligonucleotide	log2 enrichment
UAACUUUAGAGGAGGAUCUGAUGGAUAUGGCAGUGGACGUGGAUUUGGGGAUGGCUAUAAUGGGUAUGGAGGAGGACCUUGAGGUGGCAA	0.133
GCAGGAAGUAAAAACAAAUGGAAAUGCUUCGGAUAGUGGCGGGGGUGGGGGUUGCUAAGGAAAGGGUGGGAUGGGAGUGGGUAAAGAGUU	-0.0409
CUCCAGAAAGCAGUGGGGCCUGAGAUCACCAAGACAGACCUGGUCCCUGCCUUCCAGAACCUGAUGAAAGACUGUGAGGCCGAGGUGAGG	-0.178
UAUUGGACACAGUGCCCCGCUGAACAGCAGCUGUUCCCAGCGCCAGAGGACCCCACAGCCACAGUAGGAGCUUUGCGACCCCUACGCAAC	-0.999
UAACUUUAGAGGAGGAUCUGAUGGAUAUGGCAGUGGACAUGGAUUUGGGGAUGGCUAUAAUGGGUAUGGAGGAGGACCUGGAGGUGGCAA	0.236
CCUCAAGUCCUGUGCUACACAUCGUAUGUACCGAAUCGGUUUUUGGAGGUGGAAAGUAUUAUGUUACGCCGUUCGGAUCUGCACUUCCAG	0.297
UCCUCAAGUCCUGUGCUACACAUCGUAUGUACCGAAUCGGGAGGAGGGAGGGAAAGUAUUAUGUUACGCCGUUCGGAUCUGCACUUCCAG	1.38
CACAGACAACACGCACCCACACAGACACAGAGGGAAGGGGUUGGGAUGGGGACAGGGUGCACAGCAGGGCGGGGUACGACCCCAGCCCCU	1.26
UCAAGUCCUGUGCUACACAUCGUAUGUACCGAAUCGGAAAAAGGUUUGGAAAGGAAAGUAUUAUGUUACGCCGUUCGGAUCUGCACUUCC	-0.852
AAGUCCUGUGCUACACAUCGUAUGUACCGAAUCGGGAGGGUUUUUGGGAAAAAGGGAAAGUAUUAUGUUACGCCGUUCGGAUCUGCACUU	0.391
CACAGACAACACGCACCCACUCAGACACAGAGGGAAGGGGUUGGGAUGGGGACAGGGUGCACAGCAGGGCGGGGUAGGACCCCAGCCCCU	1.33
UCCUGUGCUACACAUCGUAUGUACCGAAUCGGGGUUUGGGGAAAAAAAGGGGUUUGGGGAAAGUAUUAUGUUACGCCGUUCGGAUCUGCA	0.773
UCAGAGGAAUAUCCUUGACUUCCCCCAGCAUGUUUCCCCCUCCAAGGACAUCCGGACAGCCAGCACAGAGGCCGACAAGAAGCUCUCUGA	-0.196
UCCUGUGCUACACAUCGUAUGUACCGAAUCAAACCCCCCCAAAUUUUUAAAUUUUUAAAAAAGUAUUAUGUUACGCCGUUCGGAUCUGCA	0.402

Series 5
Target: Histone acetyltransferase KAT6A, winged helix 2, GST fusion (KAT6A, Homo sapiens, UniProt Q92794, residues 85-181)
Method: protein binding microarray
Form: double-stranded DNA, one strand shown
Matrix: in vitro
Concentration: not given
Notes: 8-mer, flanks averaged, mean of 2 arrays, mostly near background
Baseline: not given
Direction: higher = stronger binding
Residues (chain): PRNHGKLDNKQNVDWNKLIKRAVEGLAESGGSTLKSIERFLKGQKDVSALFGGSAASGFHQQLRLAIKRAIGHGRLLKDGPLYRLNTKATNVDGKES
Oligonucleotide	E-score
CCGCCTCG	0.282
CCGGTCCG	0.0194
CGAAAAAA	0.112
ACCCTAGT	-0.106
TGGATAAA	0.109
CTGCAGCC	0.134
ACTACATG	-0.127
GCGGTTAA	0.134
CCTGTGCC	0.0764
GATAACGA	-0.041
GGTCGAAA	-0.128
AAGTTGGC	-0.0906
CCCAACAC	-0.135
ACCGGAGT	-0.0234
GTATCCAC	0.0612
AAACTATG	-0.182
GACCCATC	-0.0746
GGTCCGAC	0.0108
CATTTGCA	-0.0361
ATAAAGTG	0.0302
CATAATGG	-0.141
ACCTAGCG	-0.0146
GGCTTGTA	-0.107
CATTTCCA	0.0205
CCGCCGGA	0.119

Excerpt of the above (series 1):
Oligonucleotide	bound/input enrichment [ratio]
CGUCUUCUGUCUGCCUUCCCUGUCUCCCUAACUCCCCCUUCCUUCCCAUUGUCUUUUUGGCCGGUUGGAUUCUGGGGACUAAACUGCAGUUCCUCAUAAAAAUCCCCAUUCCUACCCUUU	0.322
GUGAACACAAUGGACCUUGAGAGAGAUGAACCUCUCAAAAGCACCGGCCCUCAGAUUUCUGUCCGUGAAUUUUCUUGCCACUGCUGCUACGACAUCCUGGUUAACCCCACCACCUUGAAC	0.289
UUUCCUCACAAAUGUGAGGUCUGUGAUAAAGGUUUUCAUCGUCCUUCUGAGCUCAAAAAGCACCGUGAUAUCCAUAAGGGUAGGAAGAUUCAUCAGUGCAGGCACUGUGACUUUAAAACA	0.132
GCCAUUUUCCCAGAUGGGACGCACAACGACACAUGGCAGUGCCAAGGCUACUUCACUGCACCCGAACAAUUUAUCAAGGAAGUGAUCAAGAGUCAUUCUCCCGAAGACAUGACAAAAACA	0.209
AUUUUCACAAGAAUGUUUGCAGAUCCUCAUGGCAAGGUGUUCAGCAUGUUCUUGGAGACUCCCGCCGAUUUCAUACAAGUCCACAAAGAUGAUCUUCAAGAUUGGUUGUUUGUUCUGCUG	0.126
